Experimental data from different studies.
Parts stem from different laboratories: compare values within a part only.

Block 1
Target: Prothrombin, mature alpha-thrombin (F2, Homo sapiens, UniProt P00734)
Method: aptamer microarray, sandwich
Form: DNA with 2'F-ANA
Sample: in vitro
Concentration: 200 nM
Setting: whole 15-mer aptamer, many near background
Added: Cy3 exosite-II aptamer, 400 nM
Reading: higher = stronger binding
Endpoint: mean fluorescence intensity
Oligonucleotide: GGTTGGTGTGGTTGG
2'F-ANA at 1 3 4 5 6 7 10 11 13 14: 51.5 a.u.
2'F-ANA at 1 2 3 5 6 8 9 13 14 15: 52.3 a.u.
2'F-ANA at 2 4 6 7 8 10 12 15: 125 a.u.
2'F-ANA at 1 3 5 6 8 14: 42.3 a.u.
2'F-ANA at 2 11 14: 140 a.u.
2'F-ANA at 5 7 12 15: 167 a.u.
2'F-ANA at 2 3 8 9 10 11 15: 313 a.u.
2'F-ANA at 1 4 12 14 15: 62.1 a.u.
2'F-ANA at 1 3 4 6 7 9: 182 a.u.
2'F-ANA at 1 4 9 10 11 14 15: 47.9 a.u.
2'F-ANA at 1 2 3 9 10 11 14: 59.7 a.u.
2'F-ANA at 5 6 7 8 9 12 14 15: 107 a.u.
2'F-ANA at 1 3 7 9 11 12 14: 102 a.u.
2'F-ANA at 2 4 5 9 13: 50.3 a.u.
2'F-ANA at 1 2 3 4 5 7 9 10 11 15: 49.2 a.u.
2'F-ANA at 1 2 3 4 8 9 10 11 12: 68.6 a.u.
2'F-ANA at 1 2 4 6 9 11 12 15: 169 a.u.
2'F-ANA at 2 3 4 8 12 15: 1080 a.u.
2'F-ANA at 4 5 6 8 9 10 15: 75.2 a.u.
2'F-ANA at 3 5 9 11 13 14: 52.5 a.u.

Block 2
Target: Interferon regulatory factor 5, full length, phosphomimetic (IRF5, Homo sapiens, UniProt Q13568-2, residues 1-514, K96S/S451D/S453D/S456D/S462D)
Method: protein-binding microarray
Form: double-stranded DNA, one strand shown
Sample: in vitro
Concentration: 250 nM
Setting: 60-bp whole probe
Added: salmon DNA 0.4 mg/ml
Baseline: random background probes
Reading: higher = stronger binding
Endpoint: log fluorescence
All sequences stand within: GCCTAGCAC … GTCTTGATTCGCTTGACGCTGCTG
GACGGCCTCGGTTTCGGGACGTGCTAG: 2.11 z-score
GACGGACTCGGACTGGGGACGTGCTAG: -0.115 z-score
GACGGTATCTACTATCGGGACGTGCTA: 2.33 z-score
ATAGGACTGGACACTGGGTTAGTGCTA: -0.422 z-score
TTAGGTTTCGCTCTCGGTTAGTGCTAG: 7.78 z-score
GACGGTATCCTTCTCCAGACGTGCTAG: 0.0661 z-score
GACGCTCTCCTTATCCTGACGTGCTAG: -0.203 z-score
TTAGCTTTCCTTATCCTTTAGTGCTAG: 1.4 z-score
TTAGGACTGCTTATCCTTTCGTGCTAG: 0.443 z-score
TTAGGTATCCTCCTGCTTTAGTGCTAG: -0.355 z-score
TTTAAATTCTAATTAGAATTGTGCTAG: 0.514 z-score
TTAGGTATCGGAATCGGTTAGTGCTAG: 3.33 z-score
TCAGGTATCGGTATCGGTTAGTGCTAG: 8.94 z-score
TTCGGTTTCGACTTTCGGTTAGTGCTA: 11 z-score
GCCGGTTTCGACTATCGGGACGTGCTA: 7.76 z-score
TTAGTACTGGGGACTGGGTTAGTGCTA: -0.167 z-score
TTAGGTATCCTTGTCCTTTAGTGCTAG: -0.164 z-score
GACGGTTTCGGTCTCGGGACGTGCTAG: 9.64 z-score
GCGCTTCTCGAGTGCCGGCTGGTGCTA: -0.379 z-score
TCAGCTTTCTTTACCACACTGTGCTAG: 1.17 z-score
TTAGATCTCCGTTTCGATTAGTGCTAG: 7.3 z-score
ATAGAACTGAGTTTCGATTAGTGCTAG: 9.09 z-score
TCACTTCTGCTTCCTCAGACTGTGCTA: 0.566 z-score
TTAGGAATGGGTATCGGTTAGTGCTAG: 4.7 z-score

Block 3
Target: RNA binding protein fox-1 homolog 2, RRM domain, GST-SBP tag (RBFOX2, Homo sapiens, UniProt O43251-10, residues 100-194)
Method: RNA Bind-n-Seq
Form: RNA
Sample: in vitro
Concentration: 365 nM
Setting: natural RNA segment, single round, ends assumed
Baseline: no-protein control
Reading: higher = stronger binding
Endpoint: RBNS enrichment (R)
All sequences stand within: GGGAGUUCUACAGUCCGACGAUC … UGGAAUUCUCGGGUGCCAA
Residues (chain): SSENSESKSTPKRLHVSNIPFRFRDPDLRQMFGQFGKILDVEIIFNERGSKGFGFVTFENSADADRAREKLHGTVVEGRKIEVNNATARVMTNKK
UGAACAAGUCUGUUCAUGGCAAACGUGGCUCGAGCCCACCAGACACCAGCGCAGAGCGGGGGCAGCCUGCCCCGCUGUAGCACAGGAGCAAUGGUGUAGCGUCUUCCAAG: 0.239
GCUUGUGCAGACACUCAGGGAUGGAGCUGCUGCUGAAGGGACUUGUAGGGAGAGGCUCGUCAACAAGCACUGUUCUGGAACCUUCUCUCCACGUGGCCCACAGGCCUGAC: 0.522
GCGUUCAUUACUCAGCAGUGUAUAAAGCUAACCUUGAUAAUUUUACCUUUUGUUAAUUAUCUAAAUGGGAAAUGCCAUUAGCUAAACCCCACACACAGCACAGAGAGCAG: 0.38
GCAUGUCUAUGAUGUGUGUGUCGCUGGGAAGGUCAUGCUUGCCAGUUAUGGGUGGAUCGCAGCUCUUCGCCAUCAAGUGCAUUCAGGAUUAUUCCUGGGAGGUUGCUUAA: 0.417
AAUUACUUGUAGUAAAUCAUUUGUUUGGGCUUCAAGCACUGUCUUCCAUCUGCAUCUUCCAGAUUUAUCAUGAGUGAUCUUGUUCUACUGUUAAAGAUGUCAAGCCUAAA: 0.714
GCCAGCAUUUAGUCGUUUGAGAAUUGUAGCCUGUUGUUUUCGCUGUGACUUGGGUCUCAGUGCUAGGGUAUUGAGUCAGGCAGCUGGAGGGUUGUGGCCCGAGGCUGCAG: 5.33
CCAAAUAACUGCUGGCUAGUUGGGGCUUUGUUUUGGUCUAGUGAAUAAAUACUGGUGUAUCCCCUGACUUGUACCCAGAGUACAAGGUGACAGUGACACAUGUAACUUAG: 0.32
GGAGCCUGGAGCCUUGCUCUCUGGGCACAGAGGGCUCUGCUCUCCUGCCUGCUGGGACCUGUGGAUGGGCUUCCUGGCCAAGGCCCCCUCUUCCAGGGGAGGAGCAGGGA: 0.318
UAUUUGCAUCAGUAUAAUAUAUAUCAGUGUGUCAUACAGAAAGAUAUGCUUCUGUAAUAUGAAAUAGGUUAUUUGAUAACUGAGAAACUUUAAAUGUAUCAUGUGAGCAU: 0.624
CCCCCGGCAUGGCUCCAGGUGGCCUGGUGACUCCAUGAUGGACGAUCUUGCUCCCAGGACCUGCCUCUUCCCAGGCUUCCUGGGGAAGAGUUGUACGCCCAGGCAACAAG: 0.453
AAGAUAAAUUGGGGCCUUGUAAAAGGCCAGGGUAAAAUGUCUCAGGCAAGCAAAAGAUUGUCCCCUUCUGCAUAUGGGUAAAACUGAGACGUCCCCGUGAGCCCGAGGCU: 0.914
CCCUGACAACUGGGUUUGUCCUCCCUACUCCCACCCCAAGUGGUCAAUAAGUCUUAUUUGCAAAAGCCAUGAUCUUCAAGGGUGAGAGAAAAAUCUGAAGGUCAGCGGAG: 0.376

Block 4
Target: Centromere-binding protein 1, full length, His-tagged (CBF1, Saccharomyces cerevisiae, UniProt P17106, residues 1-351)
UniProt P17106, sequence (whole entry, looked up): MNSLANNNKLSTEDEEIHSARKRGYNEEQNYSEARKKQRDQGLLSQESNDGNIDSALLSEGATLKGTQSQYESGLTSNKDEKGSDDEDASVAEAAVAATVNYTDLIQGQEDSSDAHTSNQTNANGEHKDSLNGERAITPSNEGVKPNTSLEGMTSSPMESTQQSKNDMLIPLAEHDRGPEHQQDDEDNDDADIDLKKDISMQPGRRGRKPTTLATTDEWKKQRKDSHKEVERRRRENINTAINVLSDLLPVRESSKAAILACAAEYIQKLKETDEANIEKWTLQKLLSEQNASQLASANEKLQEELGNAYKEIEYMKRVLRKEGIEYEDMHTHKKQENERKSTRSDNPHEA
Method: competition protein-binding microarray
Form: double-stranded DNA, one strand shown
Sample: in vitro
Concentration: 2 µM
Setting: whole 60-bp probe, lowest competitor level
Added: Pho4 competitor, 0.05 µM
Reading: higher = stronger binding
Endpoint: fluorescence intensity
All sequences stand within: … GTCTTGATTCGCTTGACGCTGCTG
TGTTGCCCGCCACTTAGTGTGACAGTCCCAGTCCCA: 59.7 a.u.
TATATGTTTCACTGGCACGTTTTGTTTTGTCCCCTT: 136 a.u.
TATCAGATCAGCCATCACGTGCCGAGTCGTTAGAAA: 4120 a.u.
GCTTTGGCATATTGCCACATGCGAATGTACATGTCC: 91.2 a.u.
CGTCCTAGTGATTGTCCGGTGGGTGCCATGAGGAAG: 85.2 a.u.
CTAACGAAGGTTTGCGCAGTGGGTGACAAGCCAAGT: 77.9 a.u.
CCATCTCTACTGACTCACATGGCCTGGAACGCAAGT: 176 a.u.
TGGCTACTTCGTCACCACGTGGGTACGTATCCGGAA: 1480 a.u.
TGAGGACATAATACCCACGTGAGTATGACTTTAAAA: 1700 a.u.
CAAAACGTTAGTTTAGTCGTGCTAAACCGCTATTTT: 77.9 a.u.
ATCCAATAAGAGGGGCGCGTGTCGGCAGAGATAAGC: 66.9 a.u.
GTATCTCATCGCTGGCACGGGCAGTACAGTGCCCTG: 60.1 a.u.
TAAAAATAACACCATCACGTATTTTAACGAATCAGA: 105 a.u.
CGGGGTTAAGTTTGGGTGGTGGGTGGCTTGCAGCAG: 59.1 a.u.
GTCTTGTCTCATTGGAACGTGGGTGTCCCCACTTCA: 115 a.u.
GTCGTTATGGGAACAGACGTGATGGCTATCCTAGAA: 67.9 a.u.
TGTCGTTTGGTTATTGTCGTGGGTATGCTTCTATGT: 80.1 a.u.
GATCGATTCGGCTGTCATGCCAAGATGCGAGTATGT: 67.5 a.u.
AAATTACTAAGTTTTCACGTGTCGTACCCCGTATGA: 898 a.u.
CTTCTGTAAATTTGAACTGTGGGTGGACGCGCCCCG: 76.2 a.u.
CTACGGTTCCTGCCGCTCGTGGGTACCCCAAGCAAA: 49.2 a.u.
GTCCCATTCAATGAGCACATGCCTTGTGTAGTTTTG: 154 a.u.
CTTCTGTAAATTTTACACGTGTTTTGACGCGCCCCG: 1010 a.u.

Repeated from above (block 4):
GATCGATTCGGCTGTCATGCCAAGATGCGAGTATGT: 67.5 a.u.
TGGCTACTTCGTCACCACGTGGGTACGTATCCGGAA: 1480 a.u.
TATCAGATCAGCCATCACGTGCCGAGTCGTTAGAAA: 4120 a.u.
GTCGTTATGGGAACAGACGTGATGGCTATCCTAGAA: 67.9 a.u.
CGGGGTTAAGTTTGGGTGGTGGGTGGCTTGCAGCAG: 59.1 a.u.
